{"data": "Measurements gathered from unrelated publications", "cell line": "HEK293", "note": "Compare with care: the assays were run in different laboratories."}
{"Structure (SMILES)": "CC[C@H](C)[C@H](NC(=O)[C@H](CCCNC(=N)N)NC(=O)[C@H](Cc1ccccc1)NC(=O)[C@H](CC(C)C)NC(=O)[C@H](CCCCN)NC(=O)[C@H](CO)NC(=O)[C@@H](NC(=O)[C@H](CC(C)C)NC(=O)[C@H](CCCCN)NC(=O)[C@H](C)NC(=O)[C@H](CC(N)=O)NC(=O)[C@H](CCCNC(=N)N)NC(=O)[C@H](Cc1ccc(O)cc1)NC(=O)[C@H](C)NC(=O)[C@@H](NC(=O)[C@H](CCCCN)NC(=O)[C@H](CC(N)=O)NC(=O)[C@H](CCCCN)NC(=O)[C@H](CC(C)C)NC(=O)[C@H](CO)NC(=O)[C@H](CC(C)C)NC(=O)[C@H](C)NC(=O)[C@H](C)NC(=O)[C@H](CO)NC(=O)[C@@H](NC(=O)[C@@H](NC(=O)[C@H](Cc1c[nH]c2ccccc12)NC(=O)[C@@H](NC(=O)[C@H](CO)NC(=O)[C@@H](NC(=O)[C@@H](N)CC(C)C)C(C)C)C(C)C)[C@@H](C)CC)[C@@H](C)CC)C(C)C)C(C)C)C(=O)N[C@@H](C)C(=O)N[C@@H](CC(C)C)C(=O)O", "method": "MTT", "concentration": "2 to 16 µg/mL", "time": "24 h", "endpoint": "cell death", "value": "2.5 to 7%"}
{"Structure (SMILES)": "CN1C(=O)[C@@H]2NC(=O)[C@@H]3NC(=O)[C@@H](c4ccc(O)cc4)NC(=O)[C@H](NC(=O)C(N)c4ccc(O)cc4)Cc4c[nH]c5cc(ccc45)-c4cc3cc(c4O)Oc3ccc(cc3)C[C@H]1C(=O)N[C@@H](C(=O)NCCC[N+](C)(C)C)c1ccc(O)c(c1)Oc1ccc2cc1 (some centres unmarked)", "read-out": "cell viability", "method": "CellTiter-Glo", "time": "48 h", "endpoint": "concentration without cytotoxicity", "value": "> 256 µg/mL"}
{"Structure (SMILES)": "CC(C)C[C@H](NC(=O)[C@H](C)NC(=O)CNC(=O)[C@@H](NC(=O)[C@@H](NC(=O)[C@H](CCCCN)NC(=O)[C@H](CCCCN)NC(=O)[C@H](CC(C)C)NC(=O)[C@H](CC(C)C)NC(=O)[C@H](CCCCN)NC(=O)[C@H](CC(C)C)NC(=O)[C@H](CC(C)C)NC(=O)[C@@H](N)CCCCN)C(C)C)C(C)C)C(=O)NCC(N)=O", "read-out": "cytotoxicity", "endpoint": "CC50", "value": "> 21 µM"}
{"Structure (SMILES)": "C[C@@](O)(C(F)F)[C@H](NC(=O)c1ccc(C#CC#CC2CC2)cc1)C(=O)NO", "method": "CellTiter-Glo", "time": "24 h", "endpoint": "LD50", "value": "> 128 µg/mL"}
{"Structure (SMILES)": "CCCCCCNC(C(=O)N[C@@H]1Cc2c[nH]c3cc(ccc23)-c2cc3cc(c2O)Oc2ccc(cc2)C[C@H]2C(=O)N[C@@H](C(=O)O)c4ccc(O)c(c4)Oc4ccc(cc4)[C@@H](NC(=O)[C@@H]3NC(=O)[C@@H](c3ccc(O)cc3)NC1=O)C(=O)N2C)c1ccc(O)cc1 (some centres unmarked)", "read-out": "cell viability", "method": "CellTiter-Glo", "time": "48 h", "endpoint": "concentration without cytotoxicity", "value": "> 256 µg/mL"}
{"Structure (SMILES)": "NCCCC[C@@H]1NC(=O)[C@H](CO)NC(=O)[C@H](CCC(N)=O)NC(=O)[C@H](Cc2ccccc2)NC(=O)Cc2ccc(cc2)CCNC1=O", "method": "LDH release", "concentration": "up to 256 µM", "time": "72 h", "endpoint": "cytotoxicity", "value": "not toxic"}
{"Structure (SMILES)": "CC(=O)[C@@H]1CC[C@]2(CO)CC[C@]3(C)[C@H](CC[C@@H]4[C@@]5(C)CCCNC(C)(C)[C@@H]5CC[C@]43C)[C@@H]12", "read-out": "cell growth or viability", "method": "resazurin", "time": "20 h", "endpoint": "CC50", "value": "> 20 µM"}
{"Structure (SMILES)": "CCC1(c2ccccc2)OOC2(CCN(C(=O)c3ccccc3)CC2)OO1", "read-out": "cell growth or viability", "method": "MTT", "time": "72 h", "endpoint": "CC50", "value": "> 100 µg/mL"}
{"Structure (SMILES)": "Cc1cc(C)n(C(C(=O)OC(C)C)n2nc(C)cc2C)n1.F[P-](F)(F)(F)(F)F.[Cu+].c1ccc(P(c2ccccc2)c2ccccc2)cc1", "read-out": "cell growth or viability", "method": "MTT", "endpoint": "IC50", "value": "7.2 µM"}
{"Structure (SMILES)": "CN1C(=O)[C@@H]2NC(=O)[C@@H]3NC(=O)[C@@H](c4ccc(O)cc4)NC(=O)[C@H](NC(=O)C(N)c4ccc(O)cc4)Cc4c[nH]c5cc(ccc45)-c4cc3cc(c4O)Oc3ccc(cc3)C[C@H]1C(=O)N[C@@H](C(=O)NCCCN)c1ccc(O)c(c1)Oc1ccc2cc1 (some centres unmarked)", "read-out": "cell viability", "method": "CellTiter-Glo", "time": "48 h", "endpoint": "concentration without cytotoxicity", "value": "> 256 µg/mL"}
{"Structure (SMILES)": "CC(C)OC(=O)C(n1cccn1)n1cccn1.F[P-](F)(F)(F)(F)F.[Cu+].c1ccc(P(c2ccccc2)c2ccccc2)cc1", "read-out": "cell growth or viability", "method": "MTT", "endpoint": "IC50", "value": "10.6 µM"}
{"Structure (SMILES)": "CN1CCC(NCCC2(Cc3ccc(Cl)cc3)CCCCC2)CC1", "read-out": "cell viability", "method": "CellTiter-Glo", "time": "48 h", "setting": "tested up to 60 µM", "endpoint": "LD50", "value": "20 µM"}
{"Structure (SMILES)": "CC1(c2ccc(F)cc2F)OOC2(CCN(C(=O)c3ccccc3)CC2)OO1", "read-out": "cell growth or viability", "method": "MTT", "time": "72 h", "endpoint": "CC50", "value": "> 100 µg/mL"}
{"Structure (SMILES)": "C=C(C)[C@@H]1CC[C@]2(COS(=O)(=O)c3ccc(C)cc3)CC[C@]3(C)[C@H](CC[C@@H]4[C@@]5(C)CCCNC(C)(C)[C@@H]5CC[C@]43C)[C@@H]12", "read-out": "cell growth or viability", "method": "resazurin", "time": "20 h", "endpoint": "CC50", "value": "≤ 0.125 µM"}
{"Structure (SMILES)": "NCCc1ccc(-c2nc3cc(OCCF)ccc3n3cccc23)cc1", "method": "CellTiter-Glo", "time": "48 h", "endpoint": "LD50", "value": "5 to 33 µM"}
{"Structure (SMILES)": "COC1CC(=O)N(C)C=CCCCC(=O)N(C)C(C(C)C)C(=O)N(C)C(CC(C)C)C(=O)OC(C(C)C)CC(C)C1 (centres unmarked)", "method": "MTT", "concentration": "up to 100 µM", "time": "24 h", "endpoint": "cytotoxicity", "value": "not toxic"}
{"Structure (SMILES)": "COc1cc2c3cc1Oc1cc(ccc1O)CC1c4c(cc(OC)c(O)c4Oc4ccc(cc4)CC3N(C)CC2)CCN1C (centres unmarked)", "read-out": "cell growth or viability", "method": "MTT", "time": "24 h", "endpoint": "CC50", "value": "104 µM"}
